# Measured values pooled from the literature.
# Technique: steady-state kinetics
# B1: enzyme (Aedes aegypti, UniProt Q1HQH4); chain MSLLARFRGFPTALLQHAKVSYSSAATAAKLQELALEENCILVNEKDQSLGNASKRDCHRVDENGNIRLHRAFSVFLFNSKGEMLLQRRSTHKITFPDCYTNACCSHPLHDIEGEREELNALGIRRAAQRRLNYELGIPLSQVRPENFHFLTRIHYADKGDGVWGEHEIDYILFLQKDVDLKPNESEVSEIRYIRRDQLDNQISGLDAPLTPWFQLILTHRLKLWWDNLHRLKKYQNLNEIERF
# B2: eryAI (Saccharopolyspora erythraea, UniProt Q03131); chain STEVDEVSALRYRIEWRPTGAGEPARLDGTWLVAKYAGTADETSTAAREALESAGARVRELVVDARCGRDELAERLRSVGEVAGVLSLLAVDEAEPEEAPLALASLADTLSLVQAMVSAELGCPLWTVTESAVATGPFERVRNAAHGALWGVGRVIALENPAVWGGLVDVPAGSVAELARHLAAVVSGGAGEDQLALRADGVYGRRWVRAAAPATDDEWKPTGTVLVTGGTGGVGGQIARWLARRGAPHLLLVSRSGPDADGAGELVAELEALGARTTVAACDVTDRESVRELLGGIGDDVPLSAVFHAAATLDDGTVDTLTGERIERASRAKVLGARNLHELTRELDLTAFVLFSSFASAFGAPGLGGYAPGNAYLDGLAQQRRSDGLPATAVAWGTWAGSGMAEGAVADRFRRHGVIEMPPETACRALQNALDRAEVCPIVIDVRWDRFLLAYTAQRPTRLFDEIDDARRAAPQAPAEPR
# B3: protein P94L (Streptomyces coelicolor, UniProt P16544); chain MATQDSEVALVTGATSGIGLEIARRLGKEGLRVFVCARGEEGLRTTLKELREAGVEADGRTCDVRSVPEIEALVAAVVERYGPVDVLVNNAGRLGGGATAELADELWLDVVETNLTGVFRVTKQVLKAGGMLERGTGRIVNIASTGGKQGVVHAAPYSASKHGVVGFTKALGLELARTGITVNAVCPGFVETPMAASVREHYSDIWEVSTEEAFDRITARVPIGRYVQPSEVAEMVAYLIGPGAAAVTAQALNVCGGLGNY
# B4: ST3GAL1 (Homo sapiens, UniProt Q11201); chain TTWFPKQMVLELSENLKRLIKHRPCTCTHCIGQRKLSAWFDERFNQTMQPLLTAQNALLEDDTYRWWLRLQREKKPNNLNDTIKELFRVVPGNVDPMLEKRSVGCRRCAVVGNSGNLRESSYGPEIDSHDFVLRMNKAPTAGFEADVGTKTTHHLVYPESFRELGDNVSMILVPFKTIDLEWVVSAITTGTISHTYIPVPAKIRVKQDKILIYHPAFIKYVFDNWLQGHGRYPSTGILSVIFSMHVCDEVDLYGFGADSKGNWHHYWENNPSAGAFRKTGVHDADFESNVTATLASINKIRIFKGR
# B5: enzyme (UniProt Q53796); chain MTEHPRAHTAHLRTARLELTPLDPAADARHLHHAYGDEEVMRWWTRPACADPAETERYLTSCAAAPGARLWTIRAPDGTVPGMAGLLGGTDVPGLTWLLRRDSWGHGYATEAAAAVVGHALEDGGLDRVEAWIEAGNRRSLAVAARVGLTERARLAQHYPHRPGPHEMVVLGKARAEEPLTTLAVITELPVRDVAATLRLVEAALGARTAFAIGDPPEFAEAALTPWSAGPRFRLAAVPGPGPVEPVRLHLDAAGTADSLHRRAVDAGARVDGPPVRRPWGRSEFVITLPEGHELTVSAPV
Substance,substrate,matrix,pH,temperature,setting,added,Km
B1 (enzyme),C=C(C)CCO[P@@](=O)(O)OP(=O)(O)O,,pH 8,35 °C,,,277 µM
"Paox (Mus musculus, UniProt Q8C0L6)",CC(=O)NCCCNCCCCNCCCN,,pH 10,30 °C,,,210 µM
protein (UniProt Q52060),CC=O,cell extract,,,not purified,CoA,22400 µM
"protein (Danio rerio, UniProt A0ACM8QCA3)",C[C@H](CCCC(CO)CO)[C@H]1CC[C@H]2[C@@H]3[C@H](O)C[C@@H]4C[C@H](O)CC[C@]4(C)[C@H]3C[C@H](O)[C@]12C,,pH 7,28 °C,substrate inhibition,PAPS 14 µM,15.8 µM
B2 (eryAI),CC[C@@H](O)[C@H](C)C(=O)SCCNC(=O)CCNC(=O)[C@H](O)C(C)(C)COP(=O)(O)OP(=O)(O)OC[C@H]1O[C@@H](n2cnc3c(N)ncnc32)[C@H](O)[C@@H]1OP(=O)(O)O,,pH 7.2,,,,200 µM
"PGDH1 (Amborella trichopoda, UniProt U5D351)",O=C(O)[C@H](O)COP(=O)(O)O,,pH 9,25 °C,"NaCl 0.1 M, apparent",NAD+,815 µM
B3 (protein P94L),O[C@H]1CCCc2ccccc21,,pH 7.4,,"phosphate 400 mM, NADPH 250 µM printed","NADP+, reverse reaction",6570 µM
"enzyme (Tanacetum cinerariifolium, UniProt H6U1I8)",CC/C=C\CC1=C(C)[C@@H](O)CC1=O,,pH 7.5,25 °C,,,822 µM
"phyA (Aspergillus niger, UniProt P34752)",O=P(O)(O)O[C@@H]1[C@@H](OP(=O)(O)O)[C@H](OP(=O)(O)O)[C@@H](O)[C@@H](OP(=O)(O)O)[C@H]1OP(=O)(O)O,,pH 5,37 °C,,,159 µM
B4 (ST3GAL1),CC(=O)N[C@H]1[C@H](O[C@H]2[C@@H](O)[C@@H](CO)O[C@@H](O[C@H]3[C@H](O)[C@@H](O)[C@H](Oc4ccc([N+](=O)[O-])cc4)O[C@@H]3CO)[C@@H]2O)O[C@H](CO)[C@@H](O)[C@@H]1O[C@@H]1O[C@H](CO)[C@H](O)[C@H](O)[C@H]1O,,pH 6,,,CMP-Neu5Ac,3230 µM
B5 (enzyme),CC(=O)SCCNC(=O)CCNC(=O)[C@H](O)C(C)(C)COP(=O)(O)OP(=O)(O)OC[C@H]1O[C@@H](n2cnc3c(N)ncnc32)[C@H](O)[C@@H]1OP(=O)(O)O,,pH 7.5,30 °C,,,19 µM
"pdh1 (Macropsalliota meleagris, UniProt Q3L245)",CN(C)c1ccc2nc3ccc(N(C)C)c([N+](=O)[O-])c3[s+]c2c1,,pH 7.5,22 °C,apparent,,140 µM
"asnB (Escherichia coli, UniProt P22106)",NC(=O)CC[C@H](N)C(=O)O,,pH 8,37 °C,"100 mM NaCl, glutaminase site",MgCl2; no ATP,5000 µM
